Experimental data pooled from the literature.
Compare with care: the assays were run in different laboratories. Numbers after ± are the reported error.

With `CN1C(=O)[C@@H](NC(=O)c2nnc(Cc3ccccc3)[nH]2)COc2cccnc21` the CL/F was 6.24 L/h (healthy human, fasted, plasma; oral, 200 mg single dose, geometric mean).
With `COc1cc2ncnc(Nc3ccc(F)c(Cl)c3)c2cc1NC(=O)/C=C/CN1CCCCC1` the CL/F was 70.2 L/h (human, plasma; oral, 30 mg single dose).
`CCOc1cc([C@@H](CS(C)(=O)=O)N2C(=O)c3cccc(NC(C)=O)c3C2=O)ccc1OC` has a CL/F of 12.1 L/h (healthy human; oral, 30 mg).
`Cn1cc(-c2cn3nccc3c(-c3cnn([C@]4(CC#N)C[C@@H](C#N)C4)c3)n2)cn1` has a CL/F of 55.6 L/h (healthy human; 400 mg once daily).
The CL/F of `C[C@@H](Cn1ccc(-c2ccc(C#N)c(Cl)c2)n1)NC(=O)c1cc([C@@H](C)O)[nH]n1` is reported as 62 L/h (human, fasted, plasma; oral tablet, 300 mg, geometric mean).
The CL/F of `COC(=O)N[C@H](C(=O)N1CCC[C@H]1c1nc(-c2ccc(-c3ccc(-c4c[nH]c([C@@H]5CCCN5C(=O)[C@@H](NC(=O)OC)C(C)C)n4)cc3)cc2)c[nH]1)C(C)C` is reported as 5.14 L/h (population PK full model; human).
`CC1(C)CC[C@]2(NC(=O)C(C)(F)F)CC[C@]3(C)[C@H](C(=O)C=C4[C@@]5(C)C=C(C#N)C(=O)C(C)(C)[C@@H]5CC[C@]43C)[C@@H]2C1` gave a CL/F of 20.6 L/h (human; geometric mean, with: itraconazole once daily).
`Cc1ncnc2c1ccn2[C@@H]1C[C@H](Oc2cc(C(F)F)c(F)c3c2CNCC3)[C@@H](O)[C@H]1O` gave a CL/F of 9.16 L/h (human; 4 mg twice daily, multiple dose, geometric mean).
With `CCN1CCN(Cc2ccc(Nc3ncc(F)c(-c4cc(F)c5nc(C)n(C(C)C)c5c4)n3)nc2)CC1` the CL/F was 54.4 L/h (fasted healthy human subjects; oral, 200 mg, capsule).
With `C#Cc1cccc(Nc2ncnc3cc(OCCOC)c(OCCOC)cc23)c1` the CL/F was 5.82 L/h (human; oral).
The CL/F of `CC1(COc2ccc3c(c2)ncn3-c2ccc3cccc(N4CCC(N)CC4)c3n2)COC1` is reported as 36.4 L/h/m² (human patients, recurrent/progressive HGG or DIPG, serum; oral, 130 mg/m^2, day 28, median).
With `C[C@H](Oc1ccc(Br)cc1-c1ccon1)C(=O)O` the CL/F was 4.79 L/h (healthy male humans, plasma; oral, 400 mg once daily, day 10).
With `COC(=O)c1ccc2c(c1)NC(=O)/C2=C(\Nc1ccc(N(C)C(=O)CN2CCN(C)CC2)cc1)c1ccccc1` the CL/F was 936 L/h (healthy human; oral, 150 mg single, alone).
`Cn1cncc1[C@@](N)(c1ccc(Cl)cc1)c1ccc2c(c1)c(-c1cccc(Cl)c1)cc(=O)n2C` gave a CL/F of 632 mL/min/m² (human, female, plasma; oral, across dose levels).
For `Cn1nnc2c(C(N)=O)ncn2c1=O`, the CL/F was 6.4 L/h/m2 (human patients, plasma; oral, 20 mg/m2, day 5, dose level DL2, median, with: talazoparib 400 µg/m2).
The CL/F of `CCn1cc(C(=O)N2CCOCC2)c(=O)c2cc(NC3Cc4ccccc4C3)cnc21` is reported as 17.7 L/h (human, plasma; oral, 900 mg BID, day 7, fed, tablet, female).
With `C#C[C@]1(CO)O[C@@H](n2cnc3c(N)nc(F)nc32)C[C@@H]1O` the CL/F was 27.8 L/h (human, plasma; oral, 400 mg, single dose, geometric mean).
`N#CN1C[C@H](n2nc(-c3ccc(Oc4ccc(Cl)cn4)cc3)c(C(N)=O)c2N)CCC12CC2` has a CL/F of 34.8 ± 18.6 L/h (human fed; oral, 600 mg).
`C[C@@H](Oc1ccc(S(C)(=O)=O)cc1C(=O)N1C[C@@H]2C[C@]2(c2cc(C(F)(F)F)on2)C1)C(F)(F)F` gave a CL/F of 5.34 L/h (healthy young humans; oral, 50 mg single dose).
For `N#Cc1ccc2c(c1)[C@H]1CCCN(C(=O)c3ccc4[nH]cnc4c3)[C@H]1C2`, the CL/F was 2.93 L/h (human; 20 mg once daily, day 1).
`C[C@@H](Oc1ccc(S(C)(=O)=O)cc1C(=O)N1C[C@@H]2C[C@]2(c2cc(C(F)(F)F)on2)C1)C(F)(F)F` gave a CL/F of 4.97 L/h (healthy human volunteers, fasted; oral, 10 mg single, geometric mean).
With `C[C@H]1Oc2cc(cnc2N)-c2c(nn(C)c2C#N)CN(C)C(=O)c2ccc(F)cc21` the CL/F was 16 L/h (human patients, plasma; oral, cycle 2 day 1, median, with: avelumab).
For `O=C(O)CCC(=O)O.[2H]C([2H])([2H])Oc1cc(C)c2[nH]ccc2c1CN1CC[C@@H](C2CC2)C[C@H]1c1ccc(C(=O)O)cc1`, the CL/F was 1.55 L/h (LC-MS/MS, mean; human, plasma; 50 mg, single dose, fasting).
For `Cn1c(=O)oc2ccc(-c3ccc(C[C@@H](C#N)NC(=O)[C@@H]4CNCCCO4)cc3)cc21`, the CL/F was 7.43 L/h (human, normal renal function, plasma; oral, 25 mg single dose, mean).
With `NC(=S)NN=Cc1ncccc1N` the CL/F was 145 L/h (human, plasma; oral, 150 mg).
The CL/F of `[H]/N=C(/N)c1ccc(NCc2nc3cc(C(=O)N(CCC(=O)O)c4ccccn4)ccc3n2C)cc1` is reported as 193 L/h (healthy human subjects, plasma; oral, 150 mg, dabigatran etexilate, arithmetic mean, with: fruquintinib 5 mg).
`C=CC(=O)NC1CCN(c2ncc3ncnc(Nc4ccc(Oc5ccc6c(c5)ncn6C)c(C)c4)c3n2)CC1` gave a CL/F of 13 L/h (human, plasma; oral, 30 mg single dose, fed, geometric mean).
The CL/F of `CNC(=O)n1ccc2cc(Oc3ccnc(NC(=O)c4ccc(C5CCN(CCO)CC5)cc4)c3)c(OCCOC)cc21` is reported as 273 L/h (healthy human; oral, 35 mg, fasted, geometric mean).
For `Cc1ccc(C)c(OCCCC(C)(C)C(=O)O)c1`, the CL/F was 5.8 L/h (human; oral, dose not given, before lopinavir/ritonavir, geometric mean).

Some of these lines once more:
`N#CN1C[C@H](n2nc(-c3ccc(Oc4ccc(Cl)cn4)cc3)c(C(N)=O)c2N)CCC12CC2` has a CL/F of 34.8 ± 18.6 L/h (human fed; oral, 600 mg).
`C[C@@H](Oc1ccc(S(C)(=O)=O)cc1C(=O)N1C[C@@H]2C[C@]2(c2cc(C(F)(F)F)on2)C1)C(F)(F)F` gave a CL/F of 5.34 L/h (healthy young humans; oral, 50 mg single dose).
With `C[C@H](Oc1ccc(Br)cc1-c1ccon1)C(=O)O` the CL/F was 4.79 L/h (healthy male humans, plasma; oral, 400 mg once daily, day 10).
The CL/F of `C[C@@H](Cn1ccc(-c2ccc(C#N)c(Cl)c2)n1)NC(=O)c1cc([C@@H](C)O)[nH]n1` is reported as 62 L/h (human, fasted, plasma; oral tablet, 300 mg, geometric mean).
